Published values pooled from the literature.
A part holds a random share of what one study measured.

Set 1 — technique: RNA Bind-n-Seq; molecule type: RNA; matrix: in vitro; tested at: 200 nM; setting: whole 134-nt RNA, ends assumed; with: 150 mM KCl; reference: input library; reading: higher = stronger binding
Target: Ras GTPase-activating protein-binding protein 1, full length (G3BP1, Homo sapiens, UniProt Q13283)
Chain of UniProt Q13283 (whole entry, looked up): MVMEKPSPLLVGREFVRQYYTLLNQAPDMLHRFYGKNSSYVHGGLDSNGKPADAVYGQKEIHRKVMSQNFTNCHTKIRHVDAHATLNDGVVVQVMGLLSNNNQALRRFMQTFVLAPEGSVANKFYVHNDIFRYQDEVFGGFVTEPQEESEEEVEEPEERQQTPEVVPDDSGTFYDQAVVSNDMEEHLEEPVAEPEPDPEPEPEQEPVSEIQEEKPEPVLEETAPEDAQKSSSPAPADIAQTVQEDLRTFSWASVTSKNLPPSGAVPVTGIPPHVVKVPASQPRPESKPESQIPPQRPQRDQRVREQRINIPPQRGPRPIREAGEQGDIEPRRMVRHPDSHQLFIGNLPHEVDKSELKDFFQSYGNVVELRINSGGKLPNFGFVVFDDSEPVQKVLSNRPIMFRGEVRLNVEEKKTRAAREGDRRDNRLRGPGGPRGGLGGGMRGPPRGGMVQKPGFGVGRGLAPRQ
Strand	log2 enrichment
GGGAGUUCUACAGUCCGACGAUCAGUCCUGUGCUACACAUCGUAUGUACCGAAUCGGGUUUGGGUUUGGGUUUUUUUGGGAAAGUAUUAUGUUACGCCGUUCGGAUCUGCACUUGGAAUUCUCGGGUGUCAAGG	-0.168
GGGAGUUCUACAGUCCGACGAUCUGGGAGGUGCAUUUUGUUUAUUUUUUUAGCUCAUUUCCAGGGGUGGGAAUUUUUUUUUAAUAUGUGUCAUGAAUAAAGUUGUUUUUGAAAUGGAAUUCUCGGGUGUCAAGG	0.091
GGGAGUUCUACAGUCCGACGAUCCCUGUGCUACACAUCGUAUGUACCGAAUCGGGAAAAAGGGAAAAAAAGGGUUUUUUUGGGAAAGUAUUAUGUUACGCCGUUCGGAUCUGCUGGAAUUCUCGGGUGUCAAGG	-0.867
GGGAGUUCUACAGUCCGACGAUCUGUCCCUGACUCUCCAUUUCCCCAUCUGAGUGGAUUUGGACCUAAUAGGGCACUGGAGCUGGUUCGAAUCCUGACUGGACUACUUGGCAAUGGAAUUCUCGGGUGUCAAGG	0.344
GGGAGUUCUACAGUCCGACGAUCUAACUUUAGAGGAGGAUCUGACGGAUAUGGCAGUGGACGUGGAUUUGGGGAUGGCUAUAAUGGGUAUGGAGGAGGACCUGGAGGUGGCAAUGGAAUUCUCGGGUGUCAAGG	0.383
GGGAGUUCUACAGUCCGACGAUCUGGCCCUGGUGGCAUGCGGGGAGGAAGAGGUGGCCUCAUGGAUCGUGGUGGUCCCGGUGGAAUGUUCAGAGGUGGCCGUGGCGGAGACAGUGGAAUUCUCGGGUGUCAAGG	0.358
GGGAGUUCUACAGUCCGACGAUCUGCCUCGGGAGGAGCUGUUUGUGACAUCCAAGCUGUGGAACACCAAGCACCACCCCGAGGAUGUGGAGCCUGCCCUCCGGAAGACUCUGGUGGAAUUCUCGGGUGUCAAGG	-1.38

Set 2 — technique: RNA Bind-n-Seq; molecule type: RNA; matrix: in vitro; tested at: not given; reference: input RNA pool; reading: higher = stronger binding
Target: RING finger protein unkempt homolog, zinc fingers 1-6, GST-SBP tag (UNK, Homo sapiens, UniProt Q9C0B0, residues 30-357)
Setting: RNA with constant flanks, human and mouse sites, ends assumed
Construct (chain): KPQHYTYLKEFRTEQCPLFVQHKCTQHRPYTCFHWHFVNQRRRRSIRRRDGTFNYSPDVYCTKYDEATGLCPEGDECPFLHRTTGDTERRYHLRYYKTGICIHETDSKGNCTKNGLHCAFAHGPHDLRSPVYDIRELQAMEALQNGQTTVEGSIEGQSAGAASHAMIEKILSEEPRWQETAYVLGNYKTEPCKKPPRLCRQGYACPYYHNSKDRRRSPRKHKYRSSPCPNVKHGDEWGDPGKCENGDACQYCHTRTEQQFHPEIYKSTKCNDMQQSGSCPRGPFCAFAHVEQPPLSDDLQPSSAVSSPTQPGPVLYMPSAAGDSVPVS
Strand	bound/input enrichment
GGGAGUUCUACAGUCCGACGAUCAAGUCAGCAGCACAAGCCAGACGCCGGCUGAUGAGUGGAAAAGUAAAAGUGUGGGGAAAUGUAGUUACAGUUGAAUGGGCUGACCCUGUGGAAGAACCAGAUCCAGAAGUCAUGGCUAAGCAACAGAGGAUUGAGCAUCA	0.667 ratio
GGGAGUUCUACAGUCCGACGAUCUGUGGAAGCUCCCAUGACACGCUCCAGGAGCUCACAGCUCACAUGAUGGUCACUGGCCACUUUAUCAAGGUCACAAACUCGGCCAUGAAGAAGGGGAAGCCCAUCAUGGAGACACCGGUCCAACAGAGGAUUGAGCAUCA	0.0454 ratio
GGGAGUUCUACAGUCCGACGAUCCCAGAGCUCAAAUACCCAAAAGGAGCUGGAAGAGUCGCGUUUUCUAAUCAACAGAGUUACAUAGCUGCUAUCAGUGCCCGCUUUGUUCAGCUGCAGCAUGGAGAGAUAGAUAAACGGGUGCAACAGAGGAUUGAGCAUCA	0.269 ratio
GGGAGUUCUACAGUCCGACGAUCUUGGCCAUCAAGCCAUUUUACCAAAAUAAAGAUAUCACCAAGGAAGAAUAUAAAGAAAUUGUACGGAAAGCAGUAGAUAAAGUUUGUCAUAGUAAGAGUGGAGAAGUAAAUUCUACUAAACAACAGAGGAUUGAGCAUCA	1.15 ratio
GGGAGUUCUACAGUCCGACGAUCGACUUAGAUAAUUCUUUGGAAGUGAAGGCUAAGCCUGCUUCUGGCCUAGAUGGUAAUUUCAAUAGCAUCCGAAUGGAUAUGUUCAGUGUGUAGGAGUGAAGACAGGAUCCCGUGCUUAAACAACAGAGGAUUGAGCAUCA	2.1 ratio
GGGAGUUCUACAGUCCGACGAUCAGCACUGAUCUGGCUGUAUACUGAUCCAUCACUAACCUGUUUUCUAGGACCCAGCGUAUGUAGCAUUUGUAUUGCAGUUUCCCUGGCUUACUUGUGUUUUGCACUGAUGAAUUUUGACAGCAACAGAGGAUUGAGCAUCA	0.183 ratio

Set 3 — technique: RNA Bind-n-Seq; molecule type: RNA; matrix: in vitro; tested at: 365 nM; reference: no-protein control; reading: higher = stronger binding
Target: RNA binding protein fox-1 homolog 2, RRM domain, GST-SBP tag (RBFOX2, Homo sapiens, UniProt O43251-10, residues 100-194)
Setting: natural RNA segment, single round, ends assumed
Construct (chain): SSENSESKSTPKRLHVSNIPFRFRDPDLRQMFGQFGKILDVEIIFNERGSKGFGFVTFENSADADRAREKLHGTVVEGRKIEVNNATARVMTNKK
Strand	RBNS enrichment (R)
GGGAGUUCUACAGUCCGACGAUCCAGUUACAUAGGUAGCAAGGGUUUAUUUUUACUUGGGCAAAUUUCAGUGAUAGGCAUUGAGAUCAUGCAUUCGACCAUUUGUCCUGUUCUAAUUAUGAAGAGCGUACCAGUGGAAUUCUCGGGUGCCAA	0.419
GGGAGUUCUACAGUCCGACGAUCUGUUCAUUAGAGCAAAUUCAGGGGAAUUUUUGUUCUUUUUUUUUUUAUUUGGGGGCACUAAGUUUAGAUGAGAUGAAUUGCCUCAUAGGAAAUGGAAUUGGUCAGGAUAGUGGAAUUCUCGGGUGCCAA	1.05
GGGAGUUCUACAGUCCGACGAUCGAAAUAGAUAAGUGAAAGCUGAGUGUUUCUUUGAUAGGUUCCCCUGUACUAUAGGAGUGAUAAUUGCAGCUAUUGCAAUAGUAGUAAUUGUUAAAUGGAUACUAAUGAAUUGGAAUUCUCGGGUGCCAA	0.428
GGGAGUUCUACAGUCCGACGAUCCAAGGAAUAAUUACUUUCACUCUGCUGGCUUAAUCAGUGAAGGAACAUAAAAGGAAAGCUGGCAGUGGGUCUUGGUAAUAUAUGAACUAUAUUAGAGUGCCAGAAAAGGAUGGAAUUCUCGGGUGCCAA	0.717
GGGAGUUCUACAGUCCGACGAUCUACCUAGAGAACAGGUGGUUUUUAAGGGUUAUCUUAGAUGUUUCACACCGGAAGGUUUUUAAACACUAAAAUAUAUAAUUUAUAGUUAAGGCUAAAAAGUAUAUUUAUUGUGGAAUUCUCGGGUGCCAA	0.279
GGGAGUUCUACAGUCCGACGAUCAGAAGACUCGUGUCUUGCUGUAGAAUCCAGUUUGGUUUCAGCAGCUUGACUUAAUGCACUUACAGGCUCAGGAAGGAAUUUGCUAUCACUGUUGUGGCUUUUGACUUGGGUGGAAUUCUCGGGUGCCAA	0.475
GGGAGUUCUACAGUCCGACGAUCGUCUCCAAGUCCAAAUCUGAAGGCAGCCUCACCUGCUCUCUGCCCCGGGACGCCUAGGAGCCUGGGGGACACUGGAAGAGGGGCCUGUCCAUCCUCACCAUCGCCUUCCCUGGAAUUCUCGGGUGCCAA	0.593
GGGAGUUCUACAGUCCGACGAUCACCAAAUCUACCCUCCACGGCCCUGAGGCCUUAUCAGUUCCACUGAUUAAAAACUUUCUCUUCCACGGACUUUAAGCCCGGUAGGAAAGAGAGAGGAGGAGGGGGAAAGAUGGAAUUCUCGGGUGCCAA	0.253

Single results of other studies
Molecule	target	test	system	conditions	scale	endpoint	result
PhoQ, residues 284 288 289 292 302 303 ASHLAV	PhoP, residues 12 14 15 18 19 QQAYL (Escherichia coli, UniProt P23836)	Sort-seq, refers to: YFP reporter	E. coli	PhoQ-PhoP variant library, with: 10 µM Mg2+	reference: high Mg2+ state, higher = stronger signaling	fold induction	15

Some of these lines once more (set 2):
Strand	bound/input enrichment
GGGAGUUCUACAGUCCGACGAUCAAGUCAGCAGCACAAGCCAGACGCCGGCUGAUGAGUGGAAAAGUAAAAGUGUGGGGAAAUGUAGUUACAGUUGAAUGGGCUGACCCUGUGGAAGAACCAGAUCCAGAAGUCAUGGCUAAGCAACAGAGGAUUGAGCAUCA	0.667 ratio
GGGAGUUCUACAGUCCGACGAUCUGUGGAAGCUCCCAUGACACGCUCCAGGAGCUCACAGCUCACAUGAUGGUCACUGGCCACUUUAUCAAGGUCACAAACUCGGCCAUGAAGAAGGGGAAGCCCAUCAUGGAGACACCGGUCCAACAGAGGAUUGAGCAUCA	0.0454 ratio
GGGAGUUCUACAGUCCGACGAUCCCAGAGCUCAAAUACCCAAAAGGAGCUGGAAGAGUCGCGUUUUCUAAUCAACAGAGUUACAUAGCUGCUAUCAGUGCCCGCUUUGUUCAGCUGCAGCAUGGAGAGAUAGAUAAACGGGUGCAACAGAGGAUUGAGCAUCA	0.269 ratio
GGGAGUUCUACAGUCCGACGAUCUUGGCCAUCAAGCCAUUUUACCAAAAUAAAGAUAUCACCAAGGAAGAAUAUAAAGAAAUUGUACGGAAAGCAGUAGAUAAAGUUUGUCAUAGUAAGAGUGGAGAAGUAAAUUCUACUAAACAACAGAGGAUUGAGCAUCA	1.15 ratio
